Results collected from several papers.
Each line is one published result; not all experiments were run side by side. ± gives the spread as reported.

`CC(C)C[C@H](NC(=O)[C@H](Cc1ccc(O)cc1)NC(=O)[C@@H](CCCNC(=N)N)NC(=O)[C@@H](CO)NC(=O)[C@H](Cc1ccccc1)NC(=O)[C@H](CC1CCCCC1)NC(=O)[C@H](CC(=O)O)NC(=O)CN1CCCN2CCN(CCCN(CC(=O)O)CC2)CC1)C(=O)N[C@@H](Cc1c[nH]c2ccccc12)C(=O)N[C@@H](CO)C(=O)O` [copper-64 labelled] gave a tissue uptake of 1.1 ± 0.4 %ID/g (female NMRI nude mice, bone; 1 h p.i.).
`CCCC[C@H](NC(=O)CCCCCCCNC(=O)CN1CCN(CC(=O)O)CCN(CC(=O)O)CC1)C(=O)N[C@H]1CC(=O)NCCCC[C@@H](C(N)=O)NC(=O)[C@H](Cc2c[nH]c3ccccc23)NC(=O)[C@H](CCCNC(=N)N)NC(=O)[C@@H](Cc2ccccc2)NC(=O)[C@H](Cc2c[nH]cn2)NC1=O` [copper-64 labelled] has a tissue uptake of 3.88 ± 0.71 %ID/g (C57 mice, lung; intravenous, 0.37 MBq, 0.5 h).
With `CCCC[C@H](NC(=O)CNC(=O)CNC(=O)CN1CCN(CC(=O)O)CCN(CC(=O)O)CCN(CC(=O)O)CC1)C(=O)N[C@H]1CC(=O)NCCCC[C@@H](C(N)=O)NC(=O)[C@H](Cc2c[nH]c3ccccc23)NC(=O)[C@H](CCCNC(=N)N)NC(=O)[C@@H](Cc2ccccc2)NC(=O)[C@H](Cc2c[nH]cn2)NC1=O` [lutetium-177 labelled] the tissue uptake was 2.29 ± 0.45 %ID/g (C57 mouse, female, stomach; intravenous, 0.037 MBq, 0.5 h).
The tissue uptake of `N=C(N)NCCC[C@@H]1NC(=O)[C@H](CCCCNC(=O)CNC(=O)CNC(=O)CNC(=O)CC[C@H](NC(=O)CNC(=O)CNC(=O)CNC(=O)CC[C@H](NC(=O)CN2CCN(CC(=O)O)CCN(CC(=O)O)CCN(CC(=O)O)CC2)C(=O)NCC(=O)NCC(=O)NCC(=O)N[C@@H](CCC(=O)NCC(=O)NCC(=O)NCC(=O)NCCCC[C@@H]2NC(=O)[C@@H](Cc3ccccc3)NC(=O)[C@H](CC(=O)O)NC(=O)CNC(=O)[C@H](CCCNC(=N)N)NC2=O)C(=O)NCC(=O)NCC(=O)NCC(=O)NCCCC[C@@H]2NC(=O)[C@@H](Cc3ccccc3)NC(=O)[C@H](CC(=O)O)NC(=O)CNC(=O)[C@H](CCCNC(=N)N)NC2=O)C(=O)NCC(=O)NCC(=O)NCC(=O)NCCCC[C@@H]2NC(=O)[C@@H](Cc3ccccc3)NC(=O)[C@H](CC(=O)O)NC(=O)CNC(=O)[C@H](CCCNC(=N)N)NC2=O)NC(=O)[C@@H](Cc2ccccc2)NC(=O)[C@H](CC(=O)O)NC(=O)CNC1=O` [indium-111 labelled] is reported as 2.35 ± 0.64 %ID/g (female athymic nu/nu mice, bone; intravenous, 1 h).
Under “critical aggregation concentration”, `CCCCC/C=C\C/C=C\CCCCCCCC(=O)OC[C@H](NC(=O)[C@H](Cc1c[nH]c2ccccc12)NC(=O)[C@H](Cc1c[nH]cn1)NC(=O)[C@@H]1CCC(=O)N1)C(=O)N[C@@H](Cc1ccc(O)cc1)C(=O)N[C@H](CC(C)C)C(=O)N[C@@H](CC(C)C)C(=O)N[C@@H](CCCNC(=N)N)C(=O)N1CCC[C@H]1C(=O)NCC` is recorded as 14.1 µg/mL (deionized water).
`Cc1cc(-c2ccc(NC(=O)[C@H](CCCCNC(=O)CCOCCOCCC(=O)N[C@H](Cc3ccccc3)C(=O)N[C@H]3CSSC[C@@H](C(=O)N[C@H](C(=O)O)[C@@H](C)O)NC(=O)[C@H]([C@@H](C)O)NC(=O)[C@H](CCCCN)NC(=O)[C@@H](Cc4c[nH]c5ccccc45)NC(=O)[C@H](Cc4ccc(O)cc4)NC3=O)NC(=O)CN3CCN(CC(=O)O)CCN(CC(=O)O)CCN(CC(=O)O)CC3)c(C)c2)ccc1N=Nc1ccc2c(S(=O)(=O)O)cc(S(=O)(=O)O)c(N)c2c1O` [lutetium-177 labelled]: “tumour absorbed dose ratio” 3 fold (patients with metastatic neuroendocrine tumours, all tumour lesions; reference: compound over 177Lu-EB-TATE).
With `CCCC[C@H](NC(=O)COCCOCCNC(=O)CN1CCN(CC(=O)O)CCN(CC(=O)O)CC1)C(=O)N[C@H]1CC(=O)NCCCC[C@@H](C(N)=O)NC(=O)[C@H](Cc2c[nH]c3ccccc23)NC(=O)[C@H](CCCNC(=N)N)NC(=O)[C@@H](Cc2ccccc2)NC(=O)[C@H](Cc2c[nH]cn2)NC1=O` [copper-64 labelled] the tissue uptake was 0.27 ± 0.1 %ID/g (C57 mice, blood; intravenous, 0.37 MBq, 24 h).
`COc1ccc2cc([C@H](C)C(=O)NCCCC[C@@H](NC(=O)[C@@H](Cc3ccccc3)NC(=O)[C@H](N)Cc3ccccc3)C(=O)O)ccc2c1` gave a critical strain of 0.41% (oscillatory rheology; hydrogel 0.8 wt%).
The tissue uptake of `N=C(N)NCCC[C@@H]1NC(=O)[C@H](CCCCNC(=O)CNC(=O)CNC(=O)CNC(=O)CC[C@H](NC(=O)CNC(=O)CNC(=O)CNC(=O)CN2CCN(CC(=O)O)CCN(CC(=O)O)CCN(CC(=O)O)CC2)C(=O)NCC(=O)NCC(=O)NCC(=O)NCCCC[C@@H]2NC(=O)[C@@H](Cc3ccccc3)NC(=O)[C@H](CC(=O)O)NC(=O)CNC(=O)[C@H](CCCNC(=N)N)NC2=O)NC(=O)[C@@H](Cc2ccccc2)NC(=O)[C@H](CC(=O)O)NC(=O)CNC1=O` [indium-111 labelled] is reported as 0.3 ± 0.09 %ID/g (female athymic nu/nu mice, muscle; intravenous, 111 kBq, 24 h).
For `CC[C@H](C)[C@H](NC(=O)[C@H](CCN)NC(=O)CCCCCCCCCCCNC(=O)CCCCCOC(=O)c1cn(C2CC2)c2cc(N3CCNCC3)c(F)cc2c1=O)C(=O)N[C@@H](CCN)C(=O)N[C@H](Cc1ccccc1)C(=O)N[C@@H](CC(C)C)C(=O)N[C@@H](CCN)C(=O)N[C@@H](C(=O)N[C@@H](CC(C)C)C(=O)N[C@@H](CO)C(N)=O)C(C)C`, “critical micelle concentration” read 195 µM (light transmittance; PBS; pH 7.4).
With `N=C(N)NCCC[C@@H]1NC(=O)[C@H](CCCCNC(=O)CC[C@H](NC(=O)CC[C@H](NC(=O)CN2CCN(CC(=O)O)CCN(CC(=O)O)CCN(CC(=O)O)CC2)C(=O)N[C@@H](CCC(=O)NCCCC[C@@H]2NC(=O)[C@@H](Cc3ccccc3)NC(=O)[C@H](CC(=O)O)NC(=O)CNC(=O)[C@H](CCCNC(=N)N)NC2=O)C(=O)NCCCC[C@@H]2NC(=O)[C@@H](Cc3ccccc3)NC(=O)[C@H](CC(=O)O)NC(=O)CNC(=O)[C@H](CCCNC(=N)N)NC2=O)C(=O)NCCCC[C@@H]2NC(=O)[C@@H](Cc3ccccc3)NC(=O)[C@H](CC(=O)O)NC(=O)CNC(=O)[C@H](CCCNC(=N)N)NC2=O)NC(=O)[C@@H](Cc2ccccc2)NC(=O)[C@H](CC(=O)O)NC(=O)CNC1=O` [indium-111 labelled] the tissue uptake was 0.86 ± 0.2 %ID/g (female athymic nu/nu mice, bone; intravenous, 4 h).
For `CCCC[C@H](NC(=O)CNC(=O)CNC(=O)CN1CCN(CC(=O)O)CCN(CC(=O)O)CC1)C(=O)N[C@H]1CC(=O)NCCCC[C@@H](C(N)=O)NC(=O)[C@H](Cc2c[nH]c3ccccc23)NC(=O)[C@H](CCCNC(=N)N)NC(=O)[C@@H](Cc2ccccc2)NC(=O)[C@H](Cc2c[nH]cn2)NC1=O` [technetium-99m labelled], the tissue uptake was 0.03 ± 0.03 %ID/g (C57 mouse, lung; iv, 0.037 MBq, 24 h).

Excerpt of the above:
The tissue uptake of `N=C(N)NCCC[C@@H]1NC(=O)[C@H](CCCCNC(=O)CNC(=O)CNC(=O)CNC(=O)CC[C@H](NC(=O)CNC(=O)CNC(=O)CNC(=O)CC[C@H](NC(=O)CN2CCN(CC(=O)O)CCN(CC(=O)O)CCN(CC(=O)O)CC2)C(=O)NCC(=O)NCC(=O)NCC(=O)N[C@@H](CCC(=O)NCC(=O)NCC(=O)NCC(=O)NCCCC[C@@H]2NC(=O)[C@@H](Cc3ccccc3)NC(=O)[C@H](CC(=O)O)NC(=O)CNC(=O)[C@H](CCCNC(=N)N)NC2=O)C(=O)NCC(=O)NCC(=O)NCC(=O)NCCCC[C@@H]2NC(=O)[C@@H](Cc3ccccc3)NC(=O)[C@H](CC(=O)O)NC(=O)CNC(=O)[C@H](CCCNC(=N)N)NC2=O)C(=O)NCC(=O)NCC(=O)NCC(=O)NCCCC[C@@H]2NC(=O)[C@@H](Cc3ccccc3)NC(=O)[C@H](CC(=O)O)NC(=O)CNC(=O)[C@H](CCCNC(=N)N)NC2=O)NC(=O)[C@@H](Cc2ccccc2)NC(=O)[C@H](CC(=O)O)NC(=O)CNC1=O` [indium-111 labelled] is reported as 2.35 ± 0.64 %ID/g (female athymic nu/nu mice, bone; intravenous, 1 h).
Under “critical aggregation concentration”, `CCCCC/C=C\C/C=C\CCCCCCCC(=O)OC[C@H](NC(=O)[C@H](Cc1c[nH]c2ccccc12)NC(=O)[C@H](Cc1c[nH]cn1)NC(=O)[C@@H]1CCC(=O)N1)C(=O)N[C@@H](Cc1ccc(O)cc1)C(=O)N[C@H](CC(C)C)C(=O)N[C@@H](CC(C)C)C(=O)N[C@@H](CCCNC(=N)N)C(=O)N1CCC[C@H]1C(=O)NCC` is recorded as 14.1 µg/mL (deionized water).
